{"data": "Measured values collected from several papers", "note": "Each line is one published result; not all experiments were run side by side. “And” joins repeats or separate records; there may be more than shown."}
{"SMILES": "CC[C@H](C)[C@H](NC(=O)[C@H](CC(C)C)NC(=O)[C@H](CCCNC(=N)N)NC(=O)[C@H](CCCNC(=N)N)NC(=O)[C@H](CCCNC(=N)N)NC(=O)[C@H](CCCNC(=N)N)NC(=O)[C@H](CC(C)C)NC(=O)[C@@H](NC(=O)[C@@H](NC(=O)[C@@H](NC(=O)[C@H](CC(C)C)NC(=O)[C@H](CCCNC(=N)N)NC(=O)[C@H](CO)NC(=O)[C@@H](N)CO)C(C)C)[C@@H](C)CC)[C@@H](C)CC)C(=O)N[C@@H](CO)C(=O)N[C@@H](CCCNC(=N)N)C(=O)N[C@@H](CCCNC(=N)N)C(=O)N[C@@H](CCCNC(=N)N)C(=O)N[C@@H](CCCNC(=N)N)C(N)=O", "tested on": "ESKAPE pathogens", "conditions": "range over most pathogens", "quantity": "MIC", "value": "1 to 4 µM"}
{"SMILES": "O=C1c2c(O)c(=O)ccn2N([C@@H]2c3ccccc3SCc3c2ccc(F)c3F)[C@@H]2COCCN12", "tested on": "influenza A virus", "system": "A/WSN/33 (H1N1), BALB/c mouse, lung", "conditions": "subcutaneous, 2 mg/kg every 6 h, 24 h", "quantity": "lung virus titre", "value": "2.5 log10 TCID50/mL"}
{"SMILES": "CC1(C)NC(=O)N(c2ccc(F)c(C(F)(F)F)c2)C1=O", "tested on": "pathogenic nematodes, cestode, protozoa", "conditions": "concentration not given", "quantity": "antiparasitic activity", "value": "inactive"}
{"SMILES": "CC(C)N1CCC(NC2CCN(c3cccc(-c4cc5cc(F)ccc5[nH]4)c3)CC2)CC1", "tested on": "SK-MEL-2", "quantity": "GI50", "value": "1.84 µM"}
{"SMILES": "Nc1ncnc2c1ncn2[C@@H]1O[C@@H]2COP(=O)(O)O[C@H]3[C@@H](O)[C@H](n4cnc5c(=O)[nH]cnc54)O[C@@H]3COP(=O)(O)O[C@H]2[C@H]1O", "tested on": "HFF-1", "assay": "RNA sequencing Reactome analysis, item: Reactome R-HSA-68877 mitotic prometaphase", "conditions": "together with: West Nile virus infection", "how to read": "relative to: West Nile virus infected cells, upregulated pathway", "quantity": "pathway fold enrichment", "value": 3.39}
{"SMILES": "COc1ccc2ccc3oc([N+](=O)[O-])cc3c2c1Br", "tested on": "Mycobacterium bovis BCG", "system": "1173 P2", "quantity": "MIC90", "value": "0.25 µg/mL"}
{"SMILES": "C#CC[C@@H](N)C(=O)N[C@H](CO)C(=O)N[C@@H](C(=O)N[C@H](CO)C(=O)N[C@H](CCC(=O)O)C(=O)N[C@@H](C(=O)N[C@H](CCC(N)=O)C(=O)N[C@H](CC(C)C)C(=O)N[C@H](CCSC)C(=O)N[C@H](Cc1c[nH]cn1)C(=O)N[C@H](CC(N)=O)C(=O)N[C@H](CC(C)C)C(=O)NCC(=O)N[C@H](CCCCN)C(=O)N[C@H](Cc1c[nH]cn1)C(=O)N[C@H](CC(C)C)C(=O)NCC(=O)N[C@H](CO)C(=O)N[C@H](CCSC)C(=O)N[C@H](CCC(=O)O)C(=O)N[C@H](CCCNC(=N)N)C(=O)N[C@@H](C(=O)N[C@H](Cc1ccc(O)cc1)C(=O)N[C@H](Cc1ccccc1)C(=O)N[C@H](CC(C)C)C(=O)N[C@H](CCCNC(=N)N)C(=O)N[C@H](Cc1ccccc1)C(=O)N[C@H](CCCCN)C(=O)N[C@H](CC(C)C)C(=O)N[C@H](CCC(N)=O)C(=O)N[C@H](CC(C)C)C(=O)N[C@@H](C(N)=O)[C@H](C)CC)C(C)C)[C@H](C)CC)C(C)C", "tested on": "hemagglutinin influenza A/California/07/2009 H1N1", "quantity": "IC50", "value": "120 µM"}
{"SMILES": "N#CC(C#N)=NNc1cccc(Cl)c1", "tested on": "Neisseria gonorrhoeae", "assay": "broth microdilution", "system": "ATCC 49226", "quantity": "MIC", "value": "1 µg/mL"}
{"SMILES": "CCCCC1(CCCC)CN(c2ccccc2)c2cc(SC)c(OCC(=O)N[C@@H](C(=O)NCC(=O)O)c3ccccc3)cc2S(=O)(=O)C1", "assay": "item: HDL cholesterol", "system": "human, serum", "conditions": "2.5 mg once daily, day 1", "quantity": "serum HDL-C", "value": "57 mg/dL"}
{"SMILES": "CC(C)C[C@H](CN)CC(=O)O", "assay": "whole-cell current clamp", "system": "DRG neurons, rat, spinal cord injury", "conditions": "10 µM, overnight, together with: nimodipine 5 µM", "quantity": "rheobase", "value": "35 pA and 200 pA and 100 pA and 125 pA and 165 pA and 160 pA"}
{"SMILES": "O=C(Cc1ccccc1I)N[C@H]1CCOC1=O", "tested on": "ExpR1 (Pectobacterium carotovorum)", "assay": "cellulase activity, antagonist", "system": "Pectobacterium carotovorum, single-ExpR1 strain", "conditions": "5 µM, 4 h, together with: OHHL 5 µM", "quantity": "inhibition", "value": "65%"}
{"SMILES": "COc1cc(CCC[P+](c2ccccc2)(c2ccccc2)c2ccccc2)c(OC)c2c1OCO2.[I-]", "tested on": "PC-3", "assay": "SRB", "quantity": "GI50", "value": "-5.81 log M"}
{"SMILES": "CCCCCn1cc(C(=O)C2C(C)(C)C2(C)C)c2ccccc21", "assay": "Δ9-THC discrimination", "system": "C57BL/6J male mice", "conditions": "ip", "quantity": "dose for full substitution", "value": "5.6 mg/kg"}
{"SMILES": "COc1ccc(-n2nc(C(C)=O)s/c2=N\\N=C(/C)c2ccc(NC(C)=O)cc2)cc1", "tested on": "MCF7", "conditions": "0.078 µM", "quantity": "viability", "value": "46.1%"}
{"SMILES": "COc1c(CCC[P+](c2ccccc2)(c2ccccc2)c2ccccc2)cc2c(c1OC)OCO2.[I-]", "tested on": "BT-549", "assay": "SRB", "quantity": "TGI", "value": "-4.82 log M"}
{"SMILES": "C#CC[C@@H](N)C(=O)N[C@H](CO)C(=O)N[C@@H](C(=O)N[C@H](CO)C(=O)N[C@H](CCC(=O)O)C(=O)N[C@@H](C(=O)N[C@H](CCC(N)=O)C(=O)N[C@H](CC(C)C)C(=O)N[C@H](CCSC)C(=O)N[C@H](Cc1c[nH]cn1)C(=O)N[C@H](CC(N)=O)C(=O)N[C@H](CC(C)C)C(=O)NCC(=O)N[C@H](CCCCN)C(=O)N[C@H](Cc1c[nH]cn1)C(=O)N[C@H](CC(C)C)C(=O)N[C@H](CC(N)=O)C(=O)N[C@H](CO)C(=O)N[C@H](CCSC)C(=O)N[C@H](CCC(=O)O)C(=O)N[C@H](CCCNC(=N)N)C(=O)N[C@@H](C(=O)N[C@H](CCC(=O)O)C(=O)N[C@H](Cc1c[nH]c2ccccc12)C(=O)N[C@H](CC(C)C)C(=O)N[C@H](CCCNC(=N)N)C(=O)N[C@H](CCCCN)C(=O)N[C@H](CCCCN)C(=O)N[C@H](CC(C)C)C(=O)N[C@H](CCC(N)=O)C(=O)N[C@H](CC(=O)O)C(=O)N[C@@H](C(N)=O)C(C)C)C(C)C)[C@H](C)CC)C(C)C", "tested on": "hemagglutinin influenza A/California/07/2009 H1N1", "quantity": "IC50", "value": "> 250 µM"}
{"SMILES": "CC[C@H](C)[C@@H]1NC(=O)[C@@H]2CCCN2C(=O)[C@H](CC(C)C)NC(=O)[C@H](CC(C)C)NC(=O)CNC(=O)[C@@H](NC(=O)[C@@H](NC(=O)[C@H](CC(=O)O)NC(=O)CNC(=O)[C@@H](NC(=O)[C@H](C)NC(=O)CNC(=O)[C@H](CCCCN)NC(=O)[C@H](CC(C)C)NC(=O)[C@H](CC(C)C)NC(=O)[C@H](CCCCN)NC(=O)CNC(=O)[C@@H](NC(=O)[C@@H](N)CC(C)C)C(C)C)C(C)C)C(C)C)CSSC[C@@H](C(=O)O)NC1=O", "assay": "RNA-seq, item: Apobr mRNA", "system": "mouse traumatic brain injury, frontal cortex and hippocampus", "conditions": "dose not given", "how to read": "relative to: TBI plus compound vs TBI", "quantity": "log2 fold change", "value": -2.24}
{"SMILES": "COCCC1=C(C(=O)OC)C(c2ccc(Cl)cc2)C2=C(CC(c3ccc(OC)c(OC)c3)CC2=O)N1 (single isomer, unassigned)", "tested on": "Plasmodium berghei", "assay": "parasitaemia", "system": "KBG-173, mouse", "conditions": "oral, 50 mg/kg, day 3 post-infection, PEG400 vehicle, Thompson test", "how to read": "relative to: vehicle", "quantity": "inhibition", "value": "100%"}
{"SMILES": "O=C(Cc1cccc(I)c1)N[C@H]1CCOC1=O", "tested on": "ExpR1 (Pectobacterium carotovorum)", "assay": "cellulase activity, agonist", "system": "Pectobacterium carotovorum, single-ExpR1 strain", "conditions": "200 µM, 4 h", "how to read": "relative to: OHHL", "quantity": "activation", "value": "32%"}
{"SMILES": "CCc1c([N+](=O)[O-])oc2ccc3ccccc3c12", "tested on": "Mycobacterium bovis BCG", "system": "1173 P2", "quantity": "MIC90", "value": "2 µg/mL"}
{"SMILES": "C#CC[C@@H](N)C(=O)N[C@H](CO)C(=O)N[C@@H](C(=O)N[C@H](CO)C(=O)N[C@H](CCC(=O)O)C(=O)N[C@@H](C(=O)N[C@H](CCC(N)=O)C(=O)N[C@H](CC(C)C)C(=O)N[C@H](CCSC)C(=O)N[C@H](Cc1c[nH]cn1)C(=O)N[C@H](CC(N)=O)C(=O)N[C@H](CC(C)C)C(=O)NCC(=O)N[C@H](CCCCN)C(=O)N[C@H](Cc1c[nH]cn1)C(=O)N[C@H](CC(C)C)C(=O)NCC(=O)N[C@H](CO)C(=O)N[C@H](CCSC)C(=O)N[C@H](C)C(=O)N[C@H](CCCNC(=N)N)C(=O)N[C@@H](C(=O)N[C@H](Cc1ccc(O)cc1)C(=O)N[C@H](Cc1ccccc1)C(=O)N[C@H](CC(C)C)C(=O)N[C@H](CCCNC(=N)N)C(=O)N[C@H](Cc1ccccc1)C(=O)N[C@H](CCCCN)C(=O)N[C@H](CC(C)C)C(=O)N[C@H](CCC(N)=O)C(=O)N[C@H](CC(C)C)C(=O)N[C@@H](C(N)=O)C(C)C)C(C)C)[C@H](C)CC)C(C)C", "tested on": "hemagglutinin influenza A/California/07/2009 H1N1", "quantity": "IC50", "value": "72 µM"}
{"SMILES": "CN1C(=O)C(C2C3=C(CC(C)(C)CC3=O)Oc3c(O)cccc32)C(=O)N(C)C1=O (centres unmarked)", "tested on": "3T3-L1 adipocytes", "assay": "qPCR, item: adiponectin", "conditions": "IC20, 14 days", "how to read": "relative to: untreated mature adipocytes", "quantity": "mRNA level", "value": "increased"}
{"SMILES": "CCCCCCCCCC(=O)CC(=O)N[C@H]1CCOC1=O", "tested on": "ExpR1 (Pectobacterium carotovorum)", "assay": "cellulase activity, antagonist", "system": "Pectobacterium carotovorum, single-ExpR1 strain", "conditions": "5 µM, 4 h, together with: OHHL 5 µM", "quantity": "inhibition", "value": "85%"}
